Measured values collected from several papers.
Parts stem from different laboratories: compare values within a part only. Values joined by “and” are separate records of one study, mostly repeats; a detail may differ.
Chain of UniProt P10721 (whole entry, unmodified, looked up): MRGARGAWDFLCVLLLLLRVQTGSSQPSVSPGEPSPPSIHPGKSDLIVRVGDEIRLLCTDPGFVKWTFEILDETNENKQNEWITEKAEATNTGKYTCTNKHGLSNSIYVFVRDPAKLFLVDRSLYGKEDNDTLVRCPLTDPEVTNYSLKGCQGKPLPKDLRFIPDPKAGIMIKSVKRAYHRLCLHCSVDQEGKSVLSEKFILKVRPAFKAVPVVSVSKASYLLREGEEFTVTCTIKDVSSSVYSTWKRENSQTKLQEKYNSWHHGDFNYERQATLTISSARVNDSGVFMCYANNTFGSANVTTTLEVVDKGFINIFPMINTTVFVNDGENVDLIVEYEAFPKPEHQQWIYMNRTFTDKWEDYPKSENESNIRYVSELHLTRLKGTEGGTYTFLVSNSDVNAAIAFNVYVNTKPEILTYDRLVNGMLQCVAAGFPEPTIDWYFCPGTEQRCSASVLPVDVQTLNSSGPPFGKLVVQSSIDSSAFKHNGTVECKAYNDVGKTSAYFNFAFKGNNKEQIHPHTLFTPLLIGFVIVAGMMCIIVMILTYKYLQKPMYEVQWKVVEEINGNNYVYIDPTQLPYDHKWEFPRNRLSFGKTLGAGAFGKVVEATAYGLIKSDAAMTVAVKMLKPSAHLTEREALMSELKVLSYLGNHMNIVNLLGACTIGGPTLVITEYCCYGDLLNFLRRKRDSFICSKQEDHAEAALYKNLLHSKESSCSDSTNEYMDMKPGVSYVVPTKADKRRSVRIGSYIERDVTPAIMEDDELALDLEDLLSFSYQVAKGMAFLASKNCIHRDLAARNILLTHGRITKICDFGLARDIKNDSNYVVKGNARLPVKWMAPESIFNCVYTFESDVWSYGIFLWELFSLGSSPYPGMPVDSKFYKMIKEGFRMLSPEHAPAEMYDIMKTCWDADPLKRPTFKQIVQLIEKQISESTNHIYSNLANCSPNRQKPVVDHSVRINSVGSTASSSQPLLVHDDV
Chain of UniProt Q9BWU1 (whole entry, looked up): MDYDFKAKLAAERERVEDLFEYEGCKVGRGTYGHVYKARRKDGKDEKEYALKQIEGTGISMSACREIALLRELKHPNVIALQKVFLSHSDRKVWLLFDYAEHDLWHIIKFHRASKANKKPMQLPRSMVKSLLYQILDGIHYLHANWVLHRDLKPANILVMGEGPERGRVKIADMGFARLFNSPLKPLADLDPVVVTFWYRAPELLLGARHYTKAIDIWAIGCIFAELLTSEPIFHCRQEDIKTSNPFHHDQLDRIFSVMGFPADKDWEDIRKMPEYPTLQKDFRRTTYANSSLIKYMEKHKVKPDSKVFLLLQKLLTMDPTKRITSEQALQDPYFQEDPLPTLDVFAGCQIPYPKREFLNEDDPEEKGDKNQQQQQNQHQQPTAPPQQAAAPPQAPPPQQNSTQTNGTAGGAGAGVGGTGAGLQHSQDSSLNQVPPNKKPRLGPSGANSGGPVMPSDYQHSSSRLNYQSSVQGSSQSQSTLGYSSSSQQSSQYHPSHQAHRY
Chain of UniProt Q8TD08 (whole entry, looked up): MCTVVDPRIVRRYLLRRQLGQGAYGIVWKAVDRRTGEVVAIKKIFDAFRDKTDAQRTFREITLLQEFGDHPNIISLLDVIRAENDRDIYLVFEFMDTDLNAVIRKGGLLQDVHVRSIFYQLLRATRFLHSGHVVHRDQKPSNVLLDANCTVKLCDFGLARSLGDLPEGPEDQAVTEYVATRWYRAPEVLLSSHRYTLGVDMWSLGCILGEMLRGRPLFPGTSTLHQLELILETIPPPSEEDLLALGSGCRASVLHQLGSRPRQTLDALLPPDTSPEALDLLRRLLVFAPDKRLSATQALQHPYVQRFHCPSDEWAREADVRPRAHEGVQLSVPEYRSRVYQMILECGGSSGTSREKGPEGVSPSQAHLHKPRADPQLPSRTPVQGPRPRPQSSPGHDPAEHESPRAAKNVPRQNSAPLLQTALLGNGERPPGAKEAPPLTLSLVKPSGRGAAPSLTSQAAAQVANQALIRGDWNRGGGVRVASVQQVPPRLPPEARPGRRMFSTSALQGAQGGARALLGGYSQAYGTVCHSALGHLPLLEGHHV
Chain of UniProt Q9UPZ9 (whole entry, looked up): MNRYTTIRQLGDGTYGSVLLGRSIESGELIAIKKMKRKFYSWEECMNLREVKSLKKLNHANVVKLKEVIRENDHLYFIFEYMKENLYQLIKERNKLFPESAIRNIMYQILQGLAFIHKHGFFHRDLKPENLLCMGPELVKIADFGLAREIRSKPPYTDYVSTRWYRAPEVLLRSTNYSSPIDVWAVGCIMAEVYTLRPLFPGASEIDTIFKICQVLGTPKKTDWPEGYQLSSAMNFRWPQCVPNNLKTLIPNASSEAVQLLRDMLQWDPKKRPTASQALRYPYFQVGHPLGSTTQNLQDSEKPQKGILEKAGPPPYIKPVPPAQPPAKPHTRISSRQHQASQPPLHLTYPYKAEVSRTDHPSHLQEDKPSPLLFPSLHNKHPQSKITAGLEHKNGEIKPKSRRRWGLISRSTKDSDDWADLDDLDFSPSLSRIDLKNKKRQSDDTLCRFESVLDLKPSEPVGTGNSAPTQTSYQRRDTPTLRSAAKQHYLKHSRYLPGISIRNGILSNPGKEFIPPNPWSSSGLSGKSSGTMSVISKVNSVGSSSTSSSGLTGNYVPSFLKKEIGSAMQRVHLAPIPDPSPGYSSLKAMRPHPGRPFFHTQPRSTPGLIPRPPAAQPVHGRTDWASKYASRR
Chain of UniProt Q9UF33 (whole entry, looked up): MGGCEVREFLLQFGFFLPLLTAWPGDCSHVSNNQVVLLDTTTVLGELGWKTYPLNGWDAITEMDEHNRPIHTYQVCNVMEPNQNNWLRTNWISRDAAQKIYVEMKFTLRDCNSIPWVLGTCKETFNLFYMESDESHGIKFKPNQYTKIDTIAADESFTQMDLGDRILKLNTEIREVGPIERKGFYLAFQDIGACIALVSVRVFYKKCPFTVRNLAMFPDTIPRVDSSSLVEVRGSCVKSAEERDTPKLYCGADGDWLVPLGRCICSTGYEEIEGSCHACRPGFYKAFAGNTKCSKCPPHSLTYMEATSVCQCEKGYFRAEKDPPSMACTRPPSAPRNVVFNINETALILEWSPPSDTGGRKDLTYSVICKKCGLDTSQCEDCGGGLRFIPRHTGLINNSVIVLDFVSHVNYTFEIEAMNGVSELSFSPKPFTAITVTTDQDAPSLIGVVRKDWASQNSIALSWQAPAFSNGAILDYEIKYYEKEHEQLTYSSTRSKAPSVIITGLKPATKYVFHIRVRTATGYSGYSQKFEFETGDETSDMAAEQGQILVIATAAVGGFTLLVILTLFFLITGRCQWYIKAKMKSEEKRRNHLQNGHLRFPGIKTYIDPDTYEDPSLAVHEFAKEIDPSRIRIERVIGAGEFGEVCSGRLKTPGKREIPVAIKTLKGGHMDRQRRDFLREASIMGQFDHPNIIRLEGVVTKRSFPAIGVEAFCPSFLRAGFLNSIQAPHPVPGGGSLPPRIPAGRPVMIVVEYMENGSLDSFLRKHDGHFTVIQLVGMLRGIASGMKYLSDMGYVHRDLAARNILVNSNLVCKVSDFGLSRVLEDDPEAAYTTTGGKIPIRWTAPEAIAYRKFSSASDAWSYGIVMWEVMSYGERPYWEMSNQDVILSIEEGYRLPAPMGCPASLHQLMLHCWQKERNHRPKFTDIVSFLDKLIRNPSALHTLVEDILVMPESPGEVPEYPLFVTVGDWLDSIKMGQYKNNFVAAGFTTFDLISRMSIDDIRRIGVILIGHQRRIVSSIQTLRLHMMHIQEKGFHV

Sample 1
Compound: CCCOc1ccc([C@@H]2[C@@H](C(=O)O)[C@H](c3ccc4c(c3)OCO4)CN2CC(=O)Nc2c(CC)cccc2CC)cc1
Concentration: 1 µM
target	assay	remaining binding [%]
MAPKAPK5 (Homo sapiens, UniProt Q8IW41)	cell-free assay, competition with immobilised ligand	87
CDK19 (Homo sapiens, UniProt Q9BWU1)	competition binding	89
PAK2 (Homo sapiens, UniProt Q13177)	cell-free assay, competition with immobilised ligand	100
MAPK15 (Homo sapiens, UniProt Q8TD08)	cell-free assay, competition with immobilised ligand	100
KIT (Homo sapiens, UniProt P10721, A829P)	cell-free assay, competition with immobilised ligand	66
SYK (Homo sapiens, UniProt P43405)	cell-free assay, competition with immobilised ligand	100
STK35 (Homo sapiens, UniProt Q8TDR2)	cell-free assay, competition with immobilised ligand	98
MAP3K13 (Homo sapiens, UniProt O43283)	cell-free assay, competition with immobilised ligand	75
CILK1 (Homo sapiens, UniProt Q9UPZ9)	binding, competition with immobilised ligand	100
SBK1 (Homo sapiens, UniProt Q52WX2)	cell-free assay, competition with immobilised ligand	81
Aurora kinase A (AURKA, Homo sapiens, UniProt O14965)	cell-free assay, competition with immobilised ligand	94
EGFR (Homo sapiens, UniProt P00533, L858R)	cell-free assay, competition with immobilised ligand	87
EPHA6 (Homo sapiens, UniProt Q9UF33)	cell-free assay, competition with immobilised ligand	98

Sample 2
SMILES: CCOc1ccc(Nc2c3c(nc4ccccc24)CCC3)cc1
cell line	assay	conditions	cytotoxicity
RAW264.7	resazurin	0.00332 µM, 64 h	-7% and -6%
HepG2	resazurin	0.166 µM, 48 h	4% and 6%
PMA-differentiated THP-1 macrophages		8 µM, 64 h	10% and 22%
HEK293	resazurin	16.66 µM, 10% serum	51% and 48%
HepG2	resazurin	0.0166 µM, 48 h	-2% and 1%
J774.1	resazurin	0.32 µM	-5% and -4%
HepG2	resazurin	0.66 µM, 48 h	10% and 4%

Sample 3
Target: Platelet-derived growth factor receptor alpha (PDGFRA, Homo sapiens, UniProt P16234)
Chain of UniProt P16234 (whole entry, looked up): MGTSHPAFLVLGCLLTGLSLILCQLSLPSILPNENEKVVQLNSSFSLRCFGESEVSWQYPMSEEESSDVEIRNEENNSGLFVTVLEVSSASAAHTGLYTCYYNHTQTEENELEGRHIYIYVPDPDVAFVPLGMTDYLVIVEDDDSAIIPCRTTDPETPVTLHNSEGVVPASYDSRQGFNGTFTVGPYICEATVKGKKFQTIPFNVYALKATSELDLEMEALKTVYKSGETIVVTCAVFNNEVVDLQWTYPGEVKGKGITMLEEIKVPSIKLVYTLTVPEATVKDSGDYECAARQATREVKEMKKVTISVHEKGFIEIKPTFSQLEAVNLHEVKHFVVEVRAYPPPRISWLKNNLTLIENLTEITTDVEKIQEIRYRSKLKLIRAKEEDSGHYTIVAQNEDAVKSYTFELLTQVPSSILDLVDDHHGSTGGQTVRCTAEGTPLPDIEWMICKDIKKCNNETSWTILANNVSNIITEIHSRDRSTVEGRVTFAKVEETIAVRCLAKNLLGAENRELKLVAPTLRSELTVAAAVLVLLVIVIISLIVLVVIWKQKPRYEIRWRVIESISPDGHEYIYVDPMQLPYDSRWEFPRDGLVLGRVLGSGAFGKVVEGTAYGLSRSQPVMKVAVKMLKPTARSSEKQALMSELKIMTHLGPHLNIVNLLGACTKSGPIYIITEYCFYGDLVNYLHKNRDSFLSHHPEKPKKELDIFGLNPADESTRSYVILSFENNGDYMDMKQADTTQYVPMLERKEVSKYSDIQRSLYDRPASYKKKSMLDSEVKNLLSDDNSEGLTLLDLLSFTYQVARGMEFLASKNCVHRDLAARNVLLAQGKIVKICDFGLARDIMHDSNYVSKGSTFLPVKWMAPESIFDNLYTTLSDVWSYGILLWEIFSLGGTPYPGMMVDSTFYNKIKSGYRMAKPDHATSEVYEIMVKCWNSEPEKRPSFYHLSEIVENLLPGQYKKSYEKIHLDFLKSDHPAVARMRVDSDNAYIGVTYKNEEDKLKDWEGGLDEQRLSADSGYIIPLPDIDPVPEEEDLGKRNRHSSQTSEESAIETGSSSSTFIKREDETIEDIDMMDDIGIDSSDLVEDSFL
Observed: enzyme activity
Action: inhibitor
Concentration: 0.5 µM
Baseline: control
SMILES	remaining activity [%]
O=C(c1ccccc1)c1ccc(N2CCOCC2)cc1O	91.9
CC(C)N(CCC(=O)c1ccc2ccccc2c1)Cc1ccccc1	96.5
N#CC(c1ccnc(NCCc2cccnc2)n1)c1nc2ccccc2s1 (centres unmarked)	99
COc1cc2c(Nc3ccc(Br)cc3F)ncnc2cc1OCC1CCN(C)CC1	28.6
Nc1nc(Nc2ccc(S(N)(=O)=O)cc2)nn1C(=S)Nc1c(F)cccc1F	56.4
NC(=O)c1cccc(-c2cc(Nc3ccc(OC(F)(F)F)cc3)ncn2)c1	91.8

Sample 4
Cell line: A-375
Concentration: 100 µM
Time: 18 h
SMILES	viability [%]
C#C[C@]1(O)CC[C@H]2[C@@H]3CCC4=CC(=O)CC[C@@H]4[C@H]3CC[C@@]21C	91.2
OC[C@@H](O)[C@@H](O)[C@H](O)[C@@H](O)CO	106
CCOC(=O)[C@H](CCc1ccccc1)N[C@@H](C)C(=O)N(CC(=O)O)C1Cc2ccccc2C1	70.8
COc1cc(O)c(C(=O)Nc2nc(C(=O)NCCN(C(C)C)C(C)C)cs2)cc1OC	103
NCCCC(N)(C(=O)O)C(F)F (centres unmarked)	93.8

Mixed results
SMILES	test system	conditions	quantity	result
COc1ccc(-c2c(Nc3ccccn3)[nH]c3c(C4=CCCCC4)c(-c4ccccc4)nn3c2=O)cc1	human, plasma	oral, 200 mg twice daily	apparent volume of distribution	213000 mL and 365000 mL and 493000 mL

For quick reference, copied from above (sample 1):
target	assay	remaining binding [%]
MAPKAPK5 (Homo sapiens, UniProt Q8IW41)	cell-free assay, competition with immobilised ligand	87
SYK (Homo sapiens, UniProt P43405)	cell-free assay, competition with immobilised ligand	100
CDK19 (Homo sapiens, UniProt Q9BWU1)	competition binding	89
Aurora kinase A (AURKA, Homo sapiens, UniProt O14965)	cell-free assay, competition with immobilised ligand	94
KIT (Homo sapiens, UniProt P10721, A829P)	cell-free assay, competition with immobilised ligand	66
